Results of several laboratories.
Lines come from different studies, so protocols differ. “And” joins repeats or separate records; there may be more than shown. Numbers after ± are the reported error. Ends that are not written are not given here. * marks the point of attachment.
CDK5 with p25: Cyclin-dependent kinase 5, with p25 (CDK5, Homo sapiens, UniProt Q00535)
GABA-A receptor; alpha-1/beta-2/gamma-2: GABA-A receptor; alpha-1/beta-2/gamma-2 (Rattus norvegicus, UniProt P18508+P62813+P63138)
uncharacterized protein: uncharacterized protein (Pelagibacter ubique, UniProt Q4FMK2)
B1: chain MSEILPYGEDKMGRFGADPEGSDLSFSCRLQDTNSFFAGNQAKRPPKLGQIGRAKRVVIEDDRIDDVLKGMGEKPPSGV

Substance = B1; tested on = Calcium/calmodulin-dependent protein kinase type II subunit alpha (CAMK2A, Homo sapiens, UniProt Q9UQM7, D135N/W214A); test = binding, ITC; test system = kinase domain D135N/W214A; endpoint = −TΔS; value = -1.5 kcal/mol and -1.64 kcal/mol
Substance = NTVKELKNYIQELEERNAELKNLKEHLKFAKAELEFELAAHKFE; tested on = Cyclic AMP-dependent transcription factor ATF-7 (ATF7, Homo sapiens, UniProt P17544); test = heterodimer thermal denaturation, CD; test system = peptide, 1 M GuHCl; conditions = 4 µM total peptide, pH 7.4; endpoint = Tm; value = 41 °C
Substance = KEAFYDRCLSVINLMSSKMLQINA; tested on = CDK5 with p25; test = phosphotransferase activity, radiometric; test system = peptide; conditions = concentration not given, 10% DMSO, together with: histone substrate; scale = baseline: p5-WT peptide; endpoint = activity change; value = -8%
Substance = pregnenolone sulfate; tested on = TRPM3 (Homo sapiens, UniProt Q9HCF6); test = whole-cell patch clamp; test system = HEK-293T expressing hTRPM3-YFP; conditions = 40 µM, at +80 mV, together with: clotrimazole 10 µM, DTT pretreatment; endpoint = current density; value = 5.47 ± 2.2 pA/pF
Substance = human ME2 Q51H; test = enzyme activity, NADH absorbance; conditions = without fumarate, together with: L-malate varied; endpoint = Hill coefficient; value = 1.65 ± 0.1
Substance = colistin; tested on = Pseudomonas aeruginosa; test system = clinical isolate RKI 21/11; endpoint = MIC; value = ≤ 1 µg/mL
Substance = QLATKAARKSAPATG; tested on = Procathepsin L (CTSL, Homo sapiens, UniProt P07711); test = enzyme activity, inhibitor; test system = peptide; conditions = 25 µM, pH 6.0, 25 °C, unlabelled peptide, together with: Z-LR-Mca at 0.16 Km; scale = baseline: unrelated control peptides; endpoint = inhibition; value = 32.1 ± 0.1%
Substance = For-MNFA (N-formyl; For = O=C*); tested on = Peptide deformylase, mitochondrial (Homo sapiens, UniProt Q9HBH1); test = substrate, FDH/NAD+-coupled; conditions = pH 7.5; endpoint = Km; value = 2440 ± 739 µM
Substance = Tannic acid; tested on = Protein disulfide-isomerase, a' domain (P4HB, Homo sapiens, UniProt P07237); test = di-eosin-GSSG reductase activity, inhibitor; conditions = 20 µM, isolated a' domain; endpoint = inhibition; value = inhibited
Substance = KEAFWDRCLSVLNLMSSKMLQINA; tested on = CDK5 with p25; test = phosphotransferase activity, radiometric; test system = peptide; conditions = concentration not given, 10% DMSO, together with: histone substrate; scale = baseline: p5-WT peptide; endpoint = activity change; value = 25%
Substance = IFHKNNQLAF; tested on = human HLA-A*2401 (HLA-A24); test = iTopia initial binding; test system = peptide; conditions = 11 µM, 18 h, 21 °C; scale = baseline: allele positive control peptide; endpoint = binding; value = 104%
Substance = BzATP; tested on = P2X purinoceptor 7 (P2rx7, Rattus norvegicus, UniProt Q64663, Q143A/R125A); test = ion current, agonist, two-electrode voltage clamp; test system = Xenopus laevis oocytes; conditions = 100 µM; scale = baseline: highest concentration response; endpoint = normalized current; value = 1
Substance = KEMFWDRCLSVINLMSSKMLQINA; tested on = CDK5 with p25; test = phosphotransferase activity, radiometric; test system = peptide; conditions = concentration not given, 10% DMSO, together with: histone substrate; scale = baseline: p5-WT peptide; endpoint = activity change; value = 39%
Substance = 11-deoxycorticosterone; tested on = human CYP11B2; test = substrate, stopped-flow kinetics; conditions = 4-state closed model, together with: adrenodoxin 10-fold excess; endpoint = rate constant k2; value = 1.62 min⁻¹
Substance = KEAFWDRCLMVINLMSSKMLQINA; tested on = CDK5 with p25; test = phosphotransferase activity, radiometric; test system = peptide; conditions = concentration not given, 10% DMSO, together with: histone substrate; scale = baseline: p5-WT peptide; endpoint = activity change; value = 17%
Substance = β-melibiose; tested on = Frizzled-8 (Xenopus laevis, UniProt Q91719); test = binding, biolayer interferometry; conditions = 25 °C, together with: immobilized biotinylated carbohydrate; endpoint = dissociation rate constant; value = 0.0115 s⁻¹
Substance = NASC; tested on = Glyceraldehyde-3-phosphate dehydrogenase (GAPDH, Homo sapiens, UniProt P04406); test = spectrophotometric; test system = peptide; conditions = 10 µM; scale = baseline: vehicle; endpoint = enzyme activity (Vmax); value = 106% and 92% and 94% and 94.5%
Substance = CIIS; tested on = Rattus norvegicus protein farnesyltransferase; test = peptide prenylation, substrate, SPOT peptide library; test system = peptide; conditions = together with: C15-Alk; scale = baseline: random library; endpoint = relative spot intensity; value = 100%
Substance = alpinetin; tested on = Alpha-glucosidase MAL12 (MAL12, Saccharomyces cerevisiae S288c, UniProt P53341); test = enzyme activity; conditions = concentration not given, together with: p-NPG; endpoint = inhibition; value = 0%
Substance = HDLFSRIDSSVVVVP; tested on = HLA-DR, human; test = DELFIA; test system = peptide; conditions = 10 µM, 48 h, 37 °C; scale = baseline: peptide alone; endpoint = binding; value = 1 fold
Substance = Teniposide related compound A; tested on = GABA-A receptor; alpha-1/beta-2/gamma-2; test = QP-DHM primary screen; test system = HEK293 cells; conditions = 10 µM; scale = direction not given; endpoint = agonist score; value = 0.499
Substance = KEAFWDRCLSVINLMSSKMLQLNA; tested on = CDK5 with p25; test = phosphotransferase activity, radiometric; test system = peptide; conditions = concentration not given, 10% DMSO, together with: histone substrate; scale = baseline: p5-WT peptide; endpoint = activity change; value = 29%
Substance = Ivermectin; tested on = GABA-A receptor; alpha-1/beta-2/gamma-2; test = QP-DHM; test system = HEK293 cells; conditions = 10 µM; scale = baseline: 10 µM GABA, direction not given; endpoint = agonist score; value = 0.85
Substance = IPQQHTQVM; tested on = HLA class I histocompatibility antigen, B alpha chain (Homo sapiens, UniProt P01889); test = iTopia initial binding; test system = peptide; conditions = 11 µM, 18 h, 21 °C, HLA-B7 allele; scale = baseline: allele positive control peptide; endpoint = binding; value = 60%
Substance = Rhodiosin; tested on = Cytochrome P450 1A2 (CYP1A2, Homo sapiens, UniProt P05177); test = LC-MS/MS; test system = human liver microsomes; conditions = 10 µM, together with: phenacetin; endpoint = remaining activity; value = 25.9 ± 0.64%
Substance = KQAFWDRCLSVINLMSSKMLQINA; tested on = CDK5 with p25; test = phosphotransferase activity, radiometric; test system = peptide; conditions = concentration not given, 10% DMSO, together with: histone substrate; scale = baseline: p5-WT peptide; endpoint = activity change; value = 38%
Substance = AAFRFGHATIHPLVRRLDASFQEH; tested on = HLA-DR, human; test = DELFIA; test system = peptide; conditions = 10 µM, 48 h, 37 °C; scale = baseline: peptide alone; endpoint = binding; value = > 2 fold
Substance = SKF 89626; tested on = Genome polyprotein, NS3 helicase domain (Hepatitis C virus genotype 1b, UniProt Q9WMX2); test = NS3 helicase DNA binding, fluorescence, Cy5-dT15; conditions = 100 µM; endpoint = inhibition; value = 5%
Substance = ESLSLSLSLSLSLEGTVFTSWEEYLDWV; tested on = Proprotein convertase subtilisin/kexin type 9 (PCSK9, Homo sapiens, UniProt Q8NBP7); test = SPR; test system = peptide; conditions = 78 nM to 40 µM; endpoint = maximum binding signal; value = 1580 RU
Substance = milbemycin oxime; tested on = CDR1 (Candida albicans, UniProt Q5ANA3); test = binding, microscale thermophoresis; conditions = 313 nM; endpoint = fraction bound; value = 60.3%
Substance = KEAFWDRALSVINLMSSKMLQINA; tested on = CDK5 with p25; test = phosphotransferase activity, radiometric; test system = peptide; conditions = concentration not given, 10% DMSO, together with: histone substrate; scale = baseline: p5-WT peptide; endpoint = activity change; value = 0%
Substance = GSGSSRYWANATRSGG; tested on = Tap1/Tap2 (Rattus norvegicus, UniProt P36370+P36372); test = Edman degradation; test system = peptide, T2/TAP1+2 cells; endpoint = translocated peptide size; value = ≤ 12 amino acids
Substance = RWGLLLALL; tested on = human HLA-A*2401 (HLA-A24); test = iTopia initial binding; test system = peptide; conditions = 11 µM, 18 h, 21 °C; scale = baseline: allele positive control peptide; endpoint = binding; value = 103%
Substance = TSAEGLLRVHARLRDSGRA; tested on = HLA-DR, human; test = DELFIA; test system = peptide; conditions = 10 µM, 48 h, 37 °C; scale = baseline: peptide alone; endpoint = binding; value = > 2 fold
Substance = dextrin; tested on = uncharacterized protein; test = thermal stabilisation, differential scanning fluorimetry; test system = Candidatus Pelagibacter ubique; endpoint = ΔTm; value = 6.32 °C
Substance = alkynyl-geranylgeranyl pyrophosphate; tested on = geranylgeranyltransferase type-I (Rattus norvegicus, UniProt P53610+Q04631); test = substrate, fluorescence anisotropy; conditions = isoprenoid Km, together with: FAM-RhoA peptide; endpoint = Km; value = 0.026 µM
Substance = KEAFWDRCLSVINLMMSKMLQINA; tested on = CDK5 with p25; test = phosphotransferase activity, radiometric; test system = peptide; conditions = concentration not given, 10% DMSO, together with: histone substrate; scale = baseline: p5-WT peptide; endpoint = activity change; value = 44%
Substance = maltotriose; tested on = uncharacterized protein; test = thermal stabilisation, differential scanning fluorimetry; test system = Candidatus Pelagibacter ubique; endpoint = ΔTm; value = 7.48 °C
Substance = human ME2 L79F; test = enzyme activity, NADH absorbance; conditions = without fumarate, together with: L-malate varied; endpoint = Hill coefficient; value = 1 ± 0.01

A few entries again:
Substance = milbemycin oxime; tested on = CDR1 (Candida albicans, UniProt Q5ANA3); test = binding, microscale thermophoresis; conditions = 313 nM; endpoint = fraction bound; value = 60.3%
Substance = alpinetin; tested on = Alpha-glucosidase MAL12 (MAL12, Saccharomyces cerevisiae S288c, UniProt P53341); test = enzyme activity; conditions = concentration not given, together with: p-NPG; endpoint = inhibition; value = 0%
Substance = KEAFWDRCLSVINLMMSKMLQINA; tested on = CDK5 with p25; test = phosphotransferase activity, radiometric; test system = peptide; conditions = concentration not given, 10% DMSO, together with: histone substrate; scale = baseline: p5-WT peptide; endpoint = activity change; value = 44%
Substance = Tannic acid; tested on = Protein disulfide-isomerase, a' domain (P4HB, Homo sapiens, UniProt P07237); test = di-eosin-GSSG reductase activity, inhibitor; conditions = 20 µM, isolated a' domain; endpoint = inhibition; value = inhibited
